Published values gathered from unrelated publications.
± marks the error that the study gave. Values after ≈ are worked out from the molar mass of the structure shown.

Structure (SMILES)	target or system	test	test system	setting	scale	quantity	value
COc1cc(CNC(=O)C[C@H](C)CCC=C(C)C)ccc1OCc1cn(-c2ccc(Br)cc2)nn1	UACC-257 melanoma cells	SRB	–	10 µM, 48 h	–	growth percent	86.3%
O=C1NCC(Cc2ccccc2)N(CC2CCCN2CC(CC2CCCCC2)N2CC(Cc3ccc(O)cc3)N(CCc3ccccc3)C(=O)C2=O)C1=O (stereo not shown)	calpain I and II, human	–	WM 266-4	100 µM, 4 h	reference: untreated, increase, not significant	calpain activity	~2 fold
Nc1ncnc2c1ncn2[C@H]1C[C@H](O)[C@@H](COP(=O)(O)OP(=O)(O)C(F)(Cl)P(=O)(O)O)O1 (stereo partly shown)	truncated human DNA polymerase lambda	dNTP incorporation, single-turnover kinetics	–	B sequence, A·T pair	reference: non-enzymatic LFER line	delta effective pKa4	0.5 pK units
O=S(=O)(Nc1cscn1)c1c(F)cc(NCc2c(F)ccc(F)c2CN2CCC2)cc1F	Nav1.6 R1626A, human	ion current, inhibitor, patch clamp	–	–	reference: R1626A over wild type	IC50 increase	> 1000 fold
COc1cc(CCC(C)=O)ccc1O	mouse mAb 1-G12	antibody binding, indirect competitive ELISA	–	with: coating antigen 6-OVA	–	IC50	0.263 µg/mL (≈ 1.36 µM)
COc1cc(/C=C/c2cc(C)n[nH]2)ccc1O	glutathione S-transferase	enzyme activity	MCF7	25 µM, 48 h	–	inhibition	65%
CCN(CC)CC(=O)Nc1cccc(-n2cc(-c3ccc4ccc(-c5cn(-c6cccc(NC(=O)CN(CC)CC)c6)nn5)cc4c3)nn2)c1	GLUT-1	Western blot	nude mouse, tumour xenograft	ip, 15 mg/kg, 16 h	reference: vehicle	GLUT-1 protein level	9.3%
CCC/C(=C\C1=C(OC)C(=O)c2ccccc2C1=O)C(=O)NOC	NF-κB	reporter gene, luciferase reporter	NF90-8	24 h, basal activity	–	EC50	6.1 ± 0.5 µM
CCCCC/C=C/C(=O)CCc1ccc(O)c(OC)c1	mouse mAb 1-G12	antibody binding, indirect competitive ELISA	–	with: coating antigen 2-OVA	–	IC50	> 4 µg/mL
C=C1CN(S(=O)(=O)c2ccc(C)cc2)CCCN(Cc2ccccc2)CCCN(S(=O)(=O)c2ccc(C)cc2)C1	SORT human	degrader, tGFP-P2A-BFP reporter flow cytometry, item: tGFP reporter fusion	HEK-293T transfected	10 µM, 24 h	–	protein level reduction	50%
CCCCCCCCCCCCCCCCn1cc[n+](Cc2ccccc2)c1C	hGrx1-roGFP2 redox biosensor	–	Trypanosoma brucei brucei, bloodstream form	2-fold EC50, 4 h	reference: fully reduced (DTT 1 mM)	biosensor fluorescence	45%
COc1cc(CNC(=O)C[C@H](C)CCC=C(C)C)ccc1OCc1cn(-c2cccc([N+](=O)[O-])c2)nn1	SF-268 CNS cancer cells	SRB	–	10 µM, 48 h	–	growth percent	73.2%
NC1=N[N+](=Cc2c3ccccc3cc3ccccc23)[Ga-3]23([S]1)([S]C(N)=N[N+]2=Cc1c2ccccc2cc2ccccc12)[S]C(N)=N[N+]3=Cc1c2ccccc2cc2ccccc12	pBR322 plasmid DNA	agarose gel electrophoresis	–	1 h, pH 8.2, 37 °C	–	concentration for DNA cleavage	≥ 30 µM
CC[C@H](C)[C@H](NC(=O)[C@@H]1CCCN1C(=O)[C@H](CCCNC(=N)N)NC(=O)[C@@H]1CCCN1C(=O)[C@@H]1CCCN1C(=O)[C@@H](NC(=O)[C@@H]1CCCN1C(=O)[C@H](CCCNC(=N)N)NC(=O)[C@@H]1CCCN1C(=O)[C@H](CC(C)C)NC(=O)[C@H](Cc1ccc(O)cc1)NC(=O)[C@H](CO)NC(=O)CNC(=O)[C@H](CCCCN)NC(=O)[C@H](CC(=O)O)NC(=O)[C@@H](N)C(C)C)[C@@H](C)O)C(=O)N[C@@H](Cc1ccc(O)cc1)C(=O)N[C@@H](CC(N)=O)C(=O)N[C@@H](CCCNC(=N)N)C(=O)N[C@@H](CC(N)=O)C(N)=O	70S ribosome Escherichia coli	ITC	–	pH 7.5, 30 °C	–	Kd	0.015 ± 0.01 µM
Cc1ccc(NC(=O)c2c(C)oc3ccc(O)c(CN4CCCCCC4)c23)cc1	MYC Pu22 G-quadruplex DNA	circular dichroism	–	equimolar ligand	–	ΔTm	2.1 °C
CCOC(=O)C1NC(c2ccc[n+](C)c2)C23c4c5c6c7c8c9c(c%10c%11c2c2c4c4c%12c5c5c6c6c8c8c%13c9c9c%10c%10c%11c%11c2c2c4c4c%12c%12c5c5c6c8c6c8c%13c9c9c%10c%10c%11c2c2c4c4c%12c5c6c5c8c9c%10c2c45)C713 (stereo not shown)	26S proteasome	–	PEL cells	20 µM, 24 h	reference: untreated	remaining activity	no effect

Excerpt of the above:
Structure (SMILES)	target or system	test	test system	setting	scale	quantity	value
O=C1NCC(Cc2ccccc2)N(CC2CCCN2CC(CC2CCCCC2)N2CC(Cc3ccc(O)cc3)N(CCc3ccccc3)C(=O)C2=O)C1=O (stereo not shown)	calpain I and II, human	–	WM 266-4	100 µM, 4 h	reference: untreated, increase, not significant	calpain activity	~2 fold
COc1cc(CNC(=O)C[C@H](C)CCC=C(C)C)ccc1OCc1cn(-c2cccc([N+](=O)[O-])c2)nn1	SF-268 CNS cancer cells	SRB	–	10 µM, 48 h	–	growth percent	73.2%
